Experimental data collected from several papers.
Compare with care: the assays were run in different laboratories. “And” joins repeats or separate records; there may be more than shown. Numbers after ± are the reported error.
Cell line: HeLa

The IC50 of CCC(=CCc1c(O)cc2c(c1O)C(=O)CC(c1cccc(OC)c1O)O2)CC (stereo not drawn) is reported as 25.8 ± 3.6 µM (cytotoxicity, MTT; 48 h).
With OC[C@H]1O[C@@](CO)(O[C@H]2O[C@H](CO)[C@@H](O)[C@H](O)[C@H]2O)[C@@H](O)[C@@H]1O the IC50 was > 10 µM (cell growth or viability).
CCOC(=O)/C=C1\S/C(=N\N=C\c2cccc3cc4ccccc4nc23)N(c2cccc(OC)c2)C1=O gave an IC50 of 16.1 µM (cell growth or viability, MTT; 48 h).
CC(NC(=O)c1ccccc1)C(CCCCCCCCCCCCCCC(=O)CCCCCCCC(OC(=O)c1ccccc1)C(C)NC(=O)c1ccccc1)OC(=O)c1ccccc1 (stereo not drawn) has an IC50 of > 50 µM (cell growth or viability).
Cc1ccc2c(Cl)cc(Cl)c([O-])c2n1.Cc1ccc2c(Cl)cc(Cl)c([O-])c2n1.[Co+2].c1ccc(-c2ccccn2)nc1 has an IC50 of 4.53 µM (cell growth or viability, MTT; 48 h).
The IC50 of Cc1c(COc2cc(OCc3cccc(C#N)c3)c(CN3CCCC[C@@H]3C(=O)O)cc2Cl)cccc1-c1cccc(OCCCCCCC(=O)NO)c1 is reported as > 20 µM (cell growth or viability, CCK-8; 48 h).
With NC[C@H]1O[C@H](O[C@H]2[C@H](O)[C@@H](O[C@H]3O[C@H](CO)[C@@H](O)[C@H](N)[C@H]3O)[C@H](N)C[C@@H]2N)[C@H](N)C[C@@H]1O the IC50 was > 10 µM (cell growth or viability).
CN1C(=O)CS/C1=N\N=C\c1cccc2cc3ccccc3nc12 has an IC50 of 12.3 µM (cell growth or viability, MTT; 48 h).
Cc1ccc2c(Cl)cc(Cl)c([O-])c2n1.Cc1ccc2c(Cl)cc(Cl)c([O-])c2n1.[Co+2].c1ccc(-c2ccnc3c2ccc2c(-c4ccccc4)ccnc23)cc1 gave an IC50 of 2.58 µM (cell growth or viability, MTT; 48 h).
For CCC(=CCc1c(O)cc2c(c1O)C(=O)CC(c1cc(O)ccc1OC)O2)CC (stereo not drawn), the IC50 was 29.6 µM (cell growth or viability, MTT; 48 h).
The IC50 of O=C1CS/C(=N\N=C\c2cccc3cc4ccccc4nc23)N1c1ccccc1 is reported as 12.9 µM (cell growth or viability, MTT; 48 h).
COc1ccnc(-c2cc(OC)ccn2)c1.[Co+2].[O-]c1c(I)cc(I)c2cccnc12.[O-]c1c(I)cc(I)c2cccnc12 gave an IC50 of 9.54 µM (cell growth or viability, MTT; 48 h).
With CC(=O)NCCOCCOCCOCCNC(=O)c1cc(C(=O)N2CCNCCNCCNCC2)c(O)c(C(=O)N2CCNCCNCCNCC2)c1 the IC50 was > 1000 µM (cell growth or viability, MTT; 24 h).
With CN(C)c1ccc(/C=C/c2cc(/C=C3\Sc4ccccc4N3CCCN3CCCC3)c3ccccc3[n+]2C)cc1 the IC50 was 4.2 µM (cell growth or viability, MTT; 36 h).
The IC50 of CCOC(=O)/C=C1\S/C(=N\N=C\c2cccc3cc4ccccc4nc23)N(c2ccc(F)cc2)C1=O is reported as 15.9 µM (cell growth or viability, MTT; 48 h).
The IC50 of CCCC[N+]1=c2cc3c4cc2[O][Mn-2]1(=[C]=O)(=[C]=O)(=[C]=O)[n+]1ccc(cc1)C(=O)Oc1ccccc1OC(=O)c1cc[n+](cc1)[Mn-2](=[C]=O)(=[C]=O)(=[C]=O)([O]3)[N+]=4CCCC is reported as 30.9 ± 2.32 µM (cell growth, MTT; 48 h, LED photolysed 1 h).
With CCC(=CCc1c(O)cc2c(c1O)C(=O)CC(c1cccc(O)c1)O2)CC (stereo not drawn) the IC50 was 29.2 µM (cell growth or viability, MTT; 48 h).
NC(=O)c1cn([C@@H]2O[C@H](CO)[C@@H](O)[C@H]2O)c2ncnc(N)c2c1=O has an IC50 of 4.74 µM (cell growth or viability).
The IC50 of CC(C)OC(=O)[C@H](CO)NCc1cc(Cl)c(OCc2cccc(-c3ccccc3)c2Br)cc1OCc1cccnc1 is reported as > 10 µM (cell growth or viability, MTT).
Cc1ccnc(-c2cc(C)ccn2)c1.[Co+2].[O-]c1c(I)cc(I)c2cccnc12.[O-]c1c(I)cc(I)c2cccnc12 gave an IC50 of 11.9 µM (cell growth or viability, MTT; 48 h).
The IC50 of CC(=O)NCCOCCNC(=O)c1cc(C(=O)N2CCNCCNCCNCC2)c(O)c(C(=O)N2CCNCCNCCNCC2)c1 is reported as > 1000 µM (cell growth or viability, MTT; 24 h).
COc1ccc(CNC[C@](O)(COCc2ccccc2)[C@@H]2CC[C@@H](C)C[C@H]2OCc2ccccc2)cc1 gave an IC50 of 2.37 µM (cell growth or viability, MTT; 72 h).
For O=C1CS/C(=N\N=C\c2cccc3cc4ccccc4nc23)N1c1ccc(F)cc1, the IC50 was 11.9 µM (cell growth or viability, MTT; 48 h).
CN(C)C(=S)NN=C(c1ccccn1)c1ccccn1 gave an IC50 of 2.23 µM (cell growth or viability, MTT; 48 h).
For CC(C)CN1C(=O)CS/C1=N\N=C\c1cccc2cc3ccccc3nc12, the IC50 was 30.7 µM (cell growth or viability, MTT; 48 h).
For C[C@H]1c2cccc(O)c2C(O)=C2C(=O)[C@]3(O)C(O)=C(C(N)=O)C(=O)[C@@H](N(C)C)[C@@H]3[C@@H](O)[C@@H]21, the IC50 was > 10 µM (cell growth or viability).
The IC50 of CCCCCCC(=O)[O][Pt]([NH2])([NH2])([Cl])([Cl])[O]C(=O)CCC(C)C1CCC2C3CCC4CC(O)CCC4(C)C3CCC12C (stereo not drawn) is reported as 1.1 µM (cell growth or viability, MTT; 72 h).
With COc1cccc(CNC[C@](O)(COCc2ccccc2)[C@@H]2CC[C@@H](C)C[C@H]2OCc2ccccc2)c1 the IC50 was 1.57 µM (cell growth or viability, MTT; 72 h).
COc1ccc(C2CC(=O)c3c(cc(O)c(CC=C(C)C)c3O)O2)cc1 (stereo not drawn) has an IC50 of > 100 µM (cell growth or viability, MTT; 48 h).
With C[C@@H]1CC[C@@H]([C@](O)(COCc2ccccc2)Cn2cnc3ccccc32)[C@H](OCc2ccccc2)C1 the IC50 was 3.98 µM (cell growth or viability, MTT; 72 h).
The IC50 of CN(C)CCOc1cc(NC(=O)c2cccc(C(=O)Nc3cc(OCCN(C)C)c4ccccc4n3)n2)nc2ccccc12 is reported as 2.2 µM (cell growth or viability, ATP luminescence; 72 h).
CC(=O)NCCOCCOCCNC(=O)c1cc(C(=O)N2CCNCCNCCNCC2)c(O)c(C(=O)N2CCNCCNCCNCC2)c1 gave an IC50 of > 1000 µM (cell growth or viability, MTT; 24 h).
With Cc1c(COc2cc(OCc3cccc(C#N)c3)c(CNC(CO)(CO)CO)cc2Cl)cccc1-c1cccc(OCCCCCC(=O)NO)c1 the IC50 was 4.27 µM (cell growth or viability, CCK-8; 48 h).
NCCOc1cc(NC(=O)c2cc(OCc3cn([C@H]4O[C@@H](CO)[C@H](O)[C@@H](O)[C@@H]4O)nn3)cc(C(=O)Nc3cc(OCCN)c4ccccc4n3)n2)nc2ccccc12 gave an IC50 of > 40 µM (cell growth or viability, ATP luminescence; 72 h).
For COC(=O)[C@@H]1CCCN1C(=O)[C@H](C)N(C)C(=O)OC(C)(C)C, the IC50 was 62.4 µM and 86.3 µM and 31.9 µM (cell growth or viability, SRB).
CCCC[N+]1=c2cc3c4cc2[O][Mn-2]1(=[C]=O)(=[C]=O)(=[C]=O)[n+]1ccc(cc1)C(=O)OCCOCCOC(=O)c1cc[n+](cc1)[Mn-2](=[C]=O)(=[C]=O)(=[C]=O)([O]3)[N+]=4CCCC has an IC50 of 1.74 ± 0.15 µM (cell growth, MTT; 48 h, LED photolysed 1 h).
With Cc1ccc2c(Br)cc(Br)c([O-])c2n1.Cc1ccc2c(Br)cc(Br)c([O-])c2n1.[Co+2].c1ccc(-c2ccccn2)nc1 the IC50 was 7.21 µM (cell growth or viability, MTT; 48 h).
For Cc1c(COc2cc(OCc3cccc(C#N)c3)c(CN3CCCC[C@@H]3C(=O)O)cc2Cl)cccc1-c1cccc(OCCCCCC(=O)NO)c1, the IC50 was 14.5 µM (cell growth or viability, CCK-8; 48 h).
For C[C@@H]1CC[C@@H]([C@](O)(CNCc2ccccc2F)COCc2ccccc2)[C@H](OCc2ccccc2)C1, the IC50 was 2.38 µM (cell growth or viability, MTT; 72 h).
With O=C1O[C@H]([C@@H](O)CO)C(O)=C1O[C@H]1O[C@H](CO)[C@@H](O)[C@H](O)[C@H]1O the IC50 was > 10 µM (cell growth or viability).
For COc1ccccc1CNC[C@](O)(COCc1ccccc1)[C@@H]1CC[C@@H](C)C[C@H]1OCc1ccccc1, the IC50 was 2.05 µM (cell growth or viability, MTT; 72 h).
With Clc1ccnc2c1ccc1c(Cl)ccnc12.[Co+2].[O-]c1c(Br)cc(Br)c2cccnc12.[O-]c1c(Br)cc(Br)c2cccnc12 the IC50 was 9.22 µM (cell growth or viability, MTT; 48 h).

For quick reference, copied from above:
The IC50 of CC(=O)NCCOCCNC(=O)c1cc(C(=O)N2CCNCCNCCNCC2)c(O)c(C(=O)N2CCNCCNCCNCC2)c1 is reported as > 1000 µM (cell growth or viability, MTT; 24 h).
The IC50 of Cc1c(COc2cc(OCc3cccc(C#N)c3)c(CN3CCCC[C@@H]3C(=O)O)cc2Cl)cccc1-c1cccc(OCCCCCCC(=O)NO)c1 is reported as > 20 µM (cell growth or viability, CCK-8; 48 h).
With Clc1ccnc2c1ccc1c(Cl)ccnc12.[Co+2].[O-]c1c(Br)cc(Br)c2cccnc12.[O-]c1c(Br)cc(Br)c2cccnc12 the IC50 was 9.22 µM (cell growth or viability, MTT; 48 h).
The IC50 of O=C1CS/C(=N\N=C\c2cccc3cc4ccccc4nc23)N1c1ccccc1 is reported as 12.9 µM (cell growth or viability, MTT; 48 h).
The IC50 of CC(C)OC(=O)[C@H](CO)NCc1cc(Cl)c(OCc2cccc(-c3ccccc3)c2Br)cc1OCc1cccnc1 is reported as > 10 µM (cell growth or viability, MTT).
COc1ccc(C2CC(=O)c3c(cc(O)c(CC=C(C)C)c3O)O2)cc1 (stereo not drawn) has an IC50 of > 100 µM (cell growth or viability, MTT; 48 h).
